Experimental data of several laboratories.
Compare with care: the assays were run in different laboratories. ± gives the spread as reported.

SMILES	target or system	test	test system	setting	quantity	value
Nc1ccn(C[C@@H](CO)OCP(=O)(O)OCCCS(=O)(=O)CCCCCCCCCCCCC2CCC2)c(=O)n1	human alphaherpesvirus 1	cytopathic effect	HFF, E-377		EC50	10 ± 10 nM
Nc1ncnc2c1c(-c1ccccn1)cn2[C@@H]1O[C@H](CO)[C@@H](O)[C@H]1O	Trypanosoma equiperdum	parasite growth, resazurin		72 h	EC50	61 nM
CC(=O)[O-].O.O.[O-]c1ccc(Br)cc1C=NCCN1CCOCC1.[Zn+2]	Shigella flexneri			20 µL of 100 µM per disc	inhibition zone diameter	29 mm
Nc1ccn(C[C@@H](CO)OCP(=O)(O)OCCCS(=O)(=O)CCCCCCCCCCCCCC2CCC2)c(=O)n1	human alphaherpesvirus 1	cytopathic effect	HFF, E-377		EC50	20 ± 10 nM
[64Cu+2].c1cnc(CNCc2ccc(CN3CCCN4CCNCCCN(CC4)CC3)cc2)nc1	CXCR4 (human)		NOD/SCID mice, U87 xenografts, small intestine	240 min post-injection	tissue uptake	4.33 ± 1.11 %ID/g
C[C@H](N)C(=O)OCCOCn1cnc2c(=O)[nH]c(N)nc21	human alphaherpesvirus 1	viral cytopathic effect, CPE inhibition			EC50	6600 nM
Nc1ncnc2c1c(F)cn2[C@@H]1O[C@H](CO)C[C@H]1O	Trypanosoma equiperdum	parasite growth, resazurin		72 h	EC50	0.5 nM
CC1(CCCCCCCCCCOCCCOP(=O)(O)CO[C@H](CO)Cn2ccc(N)nc2=O)COC1	human alphaherpesvirus 1	cytopathic effect	HFF, E-377		EC50	3180 ± 3780 nM
CCNC1=CC(=O)c2cc3c(cc2C1=O)CCCC3(C)C	Leishmania infantum		intracellular amastigotes, ex vivo mouse splenic explants	72 h	EC50	33800 ± 5200 nM
CC1(CCCCCCCCCCCCOCCCOP(=O)(O)CO[C@H](CO)Cn2ccc(N)nc2=O)COC1	human gammaherpesvirus 4	qPCR	Akata	3 days	EC50	3810 ± 3040 nM
COc1cc(CNC(=O)C[C@H](C)CCC=C(C)C)ccc1OCc1cn(-c2ccccc2F)nn1	SR leukaemia cells	SRB		10 µM, 48 h	growth percent	73.4%
CCOC(=O)[C@@H](C)NP(=O)(CO[C@H](CF)CN1CNC(N)=NC1=O)N[C@H](C)C(=O)OCC	human adenovirus 2	cytopathic effect			EC50	> 100000 nM
Nc1nc2c(ncn2COCCOC(=O)[C@@H](N)CO)c(=O)[nH]1	human alphaherpesvirus 1	viral cytopathic effect, CPE inhibition			EC50	6300 nM
CCCCCCSc1ccc(SCCCCCC)c(O)c(=O)c1O	human alphaherpesvirus 1	viral replication, plaque reduction	Vero		EC50	80 nM
CC(=O)Oc1ccc(OC(C)=O)c2c1CC1=C(C2)C(C)(C)CCC1	Leishmania infantum	parasite growth		72 h, promastigote	EC50	15900 nM
O=c1c(O)c(SCc2ccccc2)ccc(SCc2ccccc2)c1O	human alphaherpesvirus 1	viral replication, plaque reduction	Vero		EC50	80 ± 20 nM
C=Cc1cn([C@@H]2O[C@H](CO)C[C@H]2O)c2ncnc(N)c12	Trypanosoma equiperdum	parasite growth, resazurin		72 h	EC50	11 nM
COc1ccc(S(=O)(=O)NCc2c[nH]nc2-c2cccs2)cc1	Eimeria tenella	intracellular growth	MDBK, Penn State		EC50	540 nM
CCCCCOC(=O)C12CCC(C)C(C)C1C1=CCC3C4(C)CCC(OC5OC(CO)C(OC6OC(C)C(O)C(O)C6O)C(O)C5OC5OC(C)C(O)C(O)C5O)C(C)(C)C4CCC3(C)C1(C)CC2 (centres unmarked)	PRRSV	viral replication, immunofluorescence	MARC-145, GD-XH	48 h p.i.	EC50	6210 ± 470 nM
Cc1nc(C)c(C=[N+]([O-])C(C)(C)C)nc1C		Western blot, refers to: PGC-1α	primary midbrain neurons, rat	300 µM, together with: 20 µM MPP+	protein level increase	43.3%
C#Cc1cn([C@@H]2O[C@H](CO)C[C@H]2O)c2ncnc(N)c12	Trypanosoma equiperdum	parasite growth, resazurin		72 h	EC50	3 nM
CC(C)CCCc1ccc2c(c1)C(=O)C(Br)=C(Br)C2=O	Leishmania infantum		intracellular amastigotes, ex vivo mouse splenic explants	72 h	EC50	90000 ± 4300 nM
Nc1ncnc2c1c(Br)cn2[C@H]1C[C@H](O)[C@@H](CO)O1	Trypanosoma equiperdum	parasite growth, resazurin		72 h	EC50	67 nM
CC1(CCCCCCCCCCCCCCOCCCOP(=O)(O)CO[C@H](CO)Cn2ccc(N)nc2=O)COC1	human gammaherpesvirus 4	qPCR	Akata	3 days	EC50	5170 ± 7320 nM
COc1cc(CNC(=O)C[C@H](C)CCC=C(C)C)ccc1OCc1cn(-c2cccc([N+](=O)[O-])c2)nn1	SW-620	SRB		10 µM, 48 h	growth percent	80.9%
Nc1ncnc2c1c(Br)cn2[C@@H]1O[C@H](CO)C[C@H]1O	Trypanosoma equiperdum	parasite growth, resazurin		72 h	EC50	0.5 nM
CC(C)=CCCC1=CCC2=C(C1)C(=O)c1ccccc1C2=O	Leishmania infantum		intracellular amastigotes, ex vivo mouse splenic explants	72 h	EC50	21500 ± 1100 nM
Nc1ccn(C[C@@H](CO)OCP(=O)(O)OCCCS(=O)(=O)CCCCCCCCCCC2CCC2)c(=O)n1	human alphaherpesvirus 1	cytopathic effect	HFF, E-377		EC50	70 ± 40 nM
CCCCSc1cccc(O)c(=O)c1O	human alphaherpesvirus 1	viral replication, plaque reduction	Vero		EC50	1010 ± 320 nM

Repeated from above:
SMILES	target or system	test	test system	setting	quantity	value
CC(C)CCCc1ccc2c(c1)C(=O)C(Br)=C(Br)C2=O	Leishmania infantum		intracellular amastigotes, ex vivo mouse splenic explants	72 h	EC50	90000 ± 4300 nM
